Measured values collected from several papers.
Every numbered part comes from another study and shows a few of its results, in no order. Positions count from the first letter of the parent shown.

Study 1
Target: CCNF, cyclin fold, Cln2 fusion (human)
Technique: yeast growth competition, sequencing
Matrix: yeast
Setting: weak parent motif
Baseline: not given
Reading: higher = stronger binding
Starting sequence: PKN2 docking peptide (human); VSAVQKLDFSDTM; partner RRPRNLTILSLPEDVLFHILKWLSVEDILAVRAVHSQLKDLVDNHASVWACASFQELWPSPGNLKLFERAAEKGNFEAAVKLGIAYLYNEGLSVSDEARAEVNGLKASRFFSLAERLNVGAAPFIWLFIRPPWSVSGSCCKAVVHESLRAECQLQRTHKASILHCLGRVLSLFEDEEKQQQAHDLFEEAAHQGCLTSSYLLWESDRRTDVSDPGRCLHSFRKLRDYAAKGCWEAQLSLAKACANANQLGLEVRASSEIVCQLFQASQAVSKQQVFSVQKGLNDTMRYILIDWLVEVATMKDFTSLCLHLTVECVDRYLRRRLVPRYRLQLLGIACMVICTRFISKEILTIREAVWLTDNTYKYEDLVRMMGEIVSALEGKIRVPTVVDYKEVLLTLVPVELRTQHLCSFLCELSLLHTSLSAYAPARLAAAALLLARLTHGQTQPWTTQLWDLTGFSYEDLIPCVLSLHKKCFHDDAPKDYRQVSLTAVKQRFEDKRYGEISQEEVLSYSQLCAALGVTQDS
Variant | normalised enrichment score
VSAVQKLFFSDTM [D8F] | 1.42
VSAVQKLDFSMTM [D11M] | 1.35
VSAVQRLDFSDTM [K6R] | 1.14
VSAVQKLDFFDTM [S10F] | 0.109
VSAVQKLDPSDTM [F9P] | -0.487
VSAVRKLDFSDTM [Q5R] | 7.19
VSAVQSLDFSDTM [K6S] | 0.581
VSAVQKLQFSDTM [D8Q] | 1.49
VSAVQKLDHSDTM [F9H] | -1.07
VSNVQKLDFSDTM [A3N] | 0.161
LSAVQKLDFSDTM [V1L] | 1.23
FSAVQKLDFSDTM [V1F] | 1.66
VSAVQKYDFSDTM [L7Y] | -0.357
VSAFQKLDFSDTM [V4F] | -0.614
ISAVQKLDFSDTM [V1I] | 0.929

Study 2
Molecule: PhoQ, residues 284 288 289 292 302 303 ALVSVA
Technique: Sort-seq
Item: YFP reporter
Matrix: E. coli
Setting: PhoQ-PhoP variant library
Together with: 10 µM Mg2+
Baseline: high Mg2+ state
Reading: higher = stronger signaling
target | fold induction
PhoP, residues 12 14 15 18 19 VGHWL (Escherichia coli, UniProt P23836) | 14.4
PhoP, residues 12 14 15 18 19 LHHYF (Escherichia coli, UniProt P23836) | 15.3
PhoP, residues 12 14 15 18 19 TPWTL (Escherichia coli, UniProt P23836) | 1.08

Study 3
Target: RNA binding protein fox-1 homolog 2, RRM domain, GST-SBP tag (RBFOX2, Homo sapiens, UniProt O43251-10, residues 100-194)
Technique: RNA Bind-n-Seq
Form: RNA
Matrix: in vitro
Concentration: 365 nM
Setting: natural RNA segment, single round, ends assumed
Baseline: no-protein control
Reading: higher = stronger binding
All sequences stand within: GGGAGUUCUACAGUCCGACGAUC … UGGAAUUCUCGGGUGCCAA
Residues (chain): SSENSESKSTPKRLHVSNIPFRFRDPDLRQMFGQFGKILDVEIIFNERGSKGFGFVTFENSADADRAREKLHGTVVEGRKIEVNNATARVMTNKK
Strand | RBNS enrichment (R)
GACUCGGGCUCCUGUGCCCUUAUUCAGGAAAAGCCUCUGUGUCACUGGCUGCCUCCACUCCCACUUCCCUGACACUGCGGGGCUUGGCUGAGAGAGUGGCAUUGGCAGCA | 2.65
AGCACUUACCAGCCGAACGUGGAACAGUAUCACAAAAGAUUCCAUCUCCCAACGAUUUCAGAACUCUGAGCUCAGAGAGACUCCAGAUUUUAAAAAAUAAUUUGAGUGCU | 0.357
UGAUGCUGAAACCAUGCUGGACUGCCCCAGGCUAAGGCAGGACUGUCUGUGCAAGGCACUACAGCUAUUCACGUGGAGUUACCGCUGCAUUUUCAAAGGUCGGAGAUCUU | 0.406
UGCUCAGUGCCCCACCAGGCGUGGGCCUGGUCUCAGCGGCGGCUGCAGCCGUAGCAGCAUCCAUCUCCAGCAAGUCUCCUGGCCUCUCCUCGUCUUCUUCAUCCUCAUCA | 2.11
UCCUUUUAAAUCUCCCUCAAUCACAUUUGGUAGUGAUUUUUGACUUAGUCUGGUAGUCACCCAGCUUAAUAUCUAGUUAAAGCUAACCAUAGUAUACUUGUUAUAUAUUA | 1.07
GGCCCAAACUUGAUUGGAGAAUUUGCAAACUACCGUCGCUCAGCAACACCAAAAAGAGAAAGUCUGGUUAAAACACCAUGAGUCAAAUGUCGGGCCAGCCAACAGUAACA | 0.383
GCCUGUCCCCACUGUCUAUCCAGUGCUUACUUCAACCCUAGAGGCUGCCUUGACCCGAGGAGGCAUCUCACUGGUUCCGUACUUGUGUGUGCCCUACGCCUCACUGCUGG | 0.34
AACAGUGAAGGAUUAGCUGAAAAUAUAUGAGCAGGUGACAUUGAGGUUUACUGAAAUAGCCAAUUUGACUGGUGCUUAGACUAUUGUGCAGUAAACCUAAAAGGUAGUGG | 0.51
AGUCAUGGCCUGAGAUGCAGGUGAUGCCAUUACAGAACCAAAUCGUGGCACGUAUUGCUGUGUCUCCUCUCAGAGUGACAGUCAUAAAUACUGUCAAACAAUAAAGGGAG | 0.312
ACAGAUGAUGCAAAAAAAACUAAGAUACACUGGAUUGUACUGGAUGAGUCUGAAAUUAGUGUUAAAGAAGUGUGGUGCCUGAUGUUAUAACAACACCUCAUUCUUAACUG | 0.533
GCCCACUGUCCCACUCCCACAUGUCUGGGCACCUGCCCUGGGCUGAGGCCAGGCUGCUCCAAGGGCCGCAUGAGCCCUAAUCUGCCACAGAGCAACCCAGGUUAAACACA | 0.459
UGGGCUGGGCUGAAAGUGAAAUAUUUUCUCCCUGGAUUUUUACCAGCCAUCACCUUGGACCACCAAGCCUUGAAUGGUGUUGCCAGUUGGCUCCUCCUGGGGAGGACUUU | 0.402

Study 4
Target: Ras GTPase-activating protein-binding protein 1, C-terminal RGG region (G3BP1, Homo sapiens, UniProt Q13283)
Chain of UniProt Q13283 (whole entry, looked up): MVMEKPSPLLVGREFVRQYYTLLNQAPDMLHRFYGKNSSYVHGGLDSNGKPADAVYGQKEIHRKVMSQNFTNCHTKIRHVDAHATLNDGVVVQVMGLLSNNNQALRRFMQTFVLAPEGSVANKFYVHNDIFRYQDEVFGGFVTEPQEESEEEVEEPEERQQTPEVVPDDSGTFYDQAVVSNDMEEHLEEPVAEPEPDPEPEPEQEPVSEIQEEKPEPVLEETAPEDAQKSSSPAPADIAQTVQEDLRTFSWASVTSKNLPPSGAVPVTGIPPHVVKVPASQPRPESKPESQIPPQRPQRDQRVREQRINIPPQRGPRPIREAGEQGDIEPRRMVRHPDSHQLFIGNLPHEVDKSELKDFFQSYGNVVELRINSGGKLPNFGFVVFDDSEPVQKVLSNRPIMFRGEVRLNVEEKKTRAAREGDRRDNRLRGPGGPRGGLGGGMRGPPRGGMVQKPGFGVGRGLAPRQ
Technique: RNA Bind-n-Seq
Form: RNA
Matrix: in vitro
Concentration: 1 µM
Setting: whole 134-nt RNA, ends assumed
Together with: 150 mM KCl
Baseline: input library
Reading: higher = stronger binding
All sequences stand within: GGGAGUUCUACAGUCCGACGAUC … UGGAAUUCUCGGGUGUCAAGG
Strand | log2 enrichment
UGGCCCUGGUGGCAUGCGGGCAGGAAGAGGUGGCCUCAUGGAUCGUGGUGGUCCCGGUGGAAUGUUCAGAGGUGGCCGUGGUGGAGACAG | 2.33
UAACUUUAGAGGAGGAUCUGAUGGAUAUGGCAGUGGACGUGGAUUUGGGGAUGGCUAUAAUGGGUAUGGAGGAGGACCUGGAGAUGGCAA | -1.08
UCAAGUCCUGUGCUACACAUCGUAUGUACCGAAUCGGGUUGGUUGGGGUUGGGGAAAGUAUUAUGUUACGCCGUUCGGAUCUGCACUUCC | 0.555
UGGGAGGUGGAUUUUGUUUAUUUUUUUAGCUCAUUUCCAGGGGUGGGAAUUUUUUUUUAAUGUGUGUCAUGAAUAAAGUUGUUUUUGAAA | 3.3
GUCCUGUGCUACACAUCGUAUGUACCGAAUCGGGCCCCCCGGCCCCCCGGCCCCCCGGAAAGUAUUAUGUUACGCCGUUCGGAUCUGCAC | -0.986
GUCCUGUGCUACACAUCGUAUGUACCGAAUCGGGGAAAAAGGAAAAAGGAAAAAGGGGAAAGUAUUAUGUUACGCCGUUCGGAUCUGCAC | -1.18
UCCUGUGCUACACAUCGUAUGUACCGAAUCGGGGAGGGGAAAAAAAGGGGAAAAAGGGGAAAGUAUUAUGUUACGCCGUUCGGAUCUGCA | 1.38
GCAGGAAGUGAAAACAAAUGGAAAUGCUUCGGAUAGUGGCAGGGGUGGGGGUUGCUAAGGAAAGGGUGGGAUGGGAGUGGGUAAAGAGUU | 2.7
CCUGUGCUACACAUCGUAUGUACCGAAUCGGGGAAAAAGGGGAAAGGGGAAAAAAAGGGGAAAGUAUUAUGUUACGCCGUUCGGAUCUGC | -0.102
UAACUUUAGAGGAGGAUCUGAUGGAUAUGGCAGUGGACGUGAAUUUGGGGAUGGCUAUAAUGGGUAUGGAGGAGGACCUGGAGGUGGCAA | -1.24
UGGGCUGGAUGGCUCAGUUCCCCCAGACCUGGACUGGAAGGGCCAGCCACCUGCACCUCCUAAAAAGGGACUGCUGCAGAGACUCUUCAG | -1.21
UCAAGUCCUGUGCUACACAUCGUAUGUACCGAAUCGGGUUUGGGUUUGGGUGGGAAAGUAUUAUGUUACGCCGUUCGGAUCUGCACUUCC | 1.9
CAAGUCCUGUGCUACACAUCGUAUGUACCGAAUCGGGAAAGGAAAGGGGAAAGGGGAAAGUAUUAUGUUACGCCGUUCGGAUCUGCACUU | -0.312
AGUCCUGUGCUACACAUCGUAUGUACCGAAUCGGAAAAAGGAAAAAGGGGAAAAAGGAAAGUAUUAUGUUACGCCGUUCGGAUCUGCACU | -1.73

Study 5
Target: ABI1, truncated, D143A, DHFR fusion (Arabidopsis thaliana)
Technique: DHFR PCA, deep sequencing
Matrix: yeast
Setting: methotrexate growth selection, single substitutions
Together with: (+)-ABA 58 µM
Baseline: wild-type fitted maximum
Reading: higher = stronger binding
Starting sequence: PYL1, truncated, DHFR fusion (Arabidopsis thaliana); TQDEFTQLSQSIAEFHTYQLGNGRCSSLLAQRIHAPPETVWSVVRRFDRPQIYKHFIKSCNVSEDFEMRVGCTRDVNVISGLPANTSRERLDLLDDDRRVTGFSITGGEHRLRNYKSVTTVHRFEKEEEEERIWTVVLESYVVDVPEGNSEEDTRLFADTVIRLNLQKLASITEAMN
Variant | relative binding score [%]
R111E | 15.3
K58P | 11.6
D95I | 46.5
T1F | 85.6
R45Q | -5.83
F15Y | 84.2
V78W | 32.4
D153V | 9.29
W134C | 98
L82T | 28.5
F66W | 77.5
H122E | 63.8
